Assay results gathered from unrelated publications.
Each numbered part is a random draw from the data of one study; scales do not carry over between parts. Positions count from the first letter of the parent shown.

Block 1
Target: RNA binding protein fox-1 homolog 2, RRM domain, GST-SBP tag (RBFOX2, Homo sapiens, UniProt O43251-10, residues 100-194)
Technique: RNA Bind-n-Seq
Molecule type: RNA
Sample: in vitro
Concentration: 365 nM
Setting: natural RNA segment, single round, ends assumed
Relative to: no-protein control
Reading: higher = stronger binding
Target sequence (chain): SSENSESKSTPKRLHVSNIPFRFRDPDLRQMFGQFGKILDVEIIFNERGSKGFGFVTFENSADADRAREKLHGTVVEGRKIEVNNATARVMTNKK
| Sequence | RBNS enrichment (R) |
| --- | --- |
| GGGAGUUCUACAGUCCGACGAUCAGAAUGCUGAUGCUUUUGUAAGGCUUUGACCUGGUUAGGUCAUUGGGGGAAAUUUUCUAUAAAAGAGUGAACAAUUAUAUUUAUAUUUCAAGUUAAAGUAGUUUGGAUACUGGAAUUCUCGGGUGCCAA | 0.765 |
| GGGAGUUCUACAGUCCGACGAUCUCUUUUUUUUUUCUGCUGAAAUGAAGCUACAUGUCAUGUUUGUGUUCUUUCAUCUGUGGCUCAUCCCUGUAAAACUACGAAUCUGAGCCUCAAAUAAGCAGUAGUUUUUUUGGAAUUCUCGGGUGCCAA | 0.549 |
| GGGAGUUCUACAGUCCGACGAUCAGAAAGAAUUGUCCUCCUGUAGGUUCCAUUCCUUCGGAUGGGCCUACCUUACCAUUGUUAGGACAGCGUGAGUAGACCUGCUUGCUCUUCUCACUUUCCUCAUUGGCUUAUGGAAUUCUCGGGUGCCAA | 3.93 |
| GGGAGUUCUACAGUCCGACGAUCCCCUAAACCUCAGGGCCAAUAUGGUGCUUCUAUCUAUCUCGAGUUGAUUUUAUAUAAAGAUUUGUGGGGAAAUAUCUUUAUAUUAAAAGCAGGUUAUUGGAAUAGAAUCCUGGAAUUCUCGGGUGCCAA | 0.82 |
| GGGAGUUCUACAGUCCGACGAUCCGGUUCUCAUCUCAGGUUGGUAUCUUUCAUCCAGUCCAAAAUGCAAGCGGCACUAAUGAAUUGUUCUUAAUCCGGCACGUCUAAUUUGACACGUUUUCAUGAAGGAAUAAUGGAAUUCUCGGGUGCCAA | 0.641 |
| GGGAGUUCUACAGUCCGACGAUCAUAAAAUGAGAAGAGACCAUUCCAUCAUUGAAGUGUUGGAAUAUAAAAAGACAUUCCAGAGCAUAGCCUUUUGGUAACUUUCUAGGUAAUCUUGCAAUCUCUCCAUACUGUGGAAUUCUCGGGUGCCAA | 0.349 |
| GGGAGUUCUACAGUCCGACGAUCUUAUUGUUAUCACCUAUGUACAAUGGAAAGGGAUUUUAAGCACAAACCUGCUGCUCAUCUAACGUUGGUACAUAAUCUCAAAUCAAAAGUUAUCUGUGACUAUUAUAUAGUGGAAUUCUCGGGUGCCAA | 0.349 |
| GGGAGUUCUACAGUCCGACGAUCAUCUUAUACUGUCCCCCUUUCUAAUGGCCACUCUUUAGUGUUUGUGUCUAAUGUUAAUGCUUAAAGCACAGGACCCCCAUGUAGCUUCCUCUGACUUGGUUUGUAAGUAAUGGAAUUCUCGGGUGCCAA | 0.664 |

Block 2
Target: ABI1, truncated, D143A, DHFR fusion (Arabidopsis thaliana)
Technique: DHFR PCA, deep sequencing
Sample: yeast
Setting: methotrexate growth selection, single substitutions
Added: (+)-ABA 710 µM
Relative to: wild-type fitted maximum
Reading: higher = stronger binding
Parent: PYL1, truncated, DHFR fusion (Arabidopsis thaliana); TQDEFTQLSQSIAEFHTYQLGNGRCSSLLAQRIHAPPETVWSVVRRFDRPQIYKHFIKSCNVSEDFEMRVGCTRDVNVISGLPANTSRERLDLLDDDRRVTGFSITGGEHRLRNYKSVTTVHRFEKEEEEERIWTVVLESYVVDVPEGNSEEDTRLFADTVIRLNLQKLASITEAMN; partner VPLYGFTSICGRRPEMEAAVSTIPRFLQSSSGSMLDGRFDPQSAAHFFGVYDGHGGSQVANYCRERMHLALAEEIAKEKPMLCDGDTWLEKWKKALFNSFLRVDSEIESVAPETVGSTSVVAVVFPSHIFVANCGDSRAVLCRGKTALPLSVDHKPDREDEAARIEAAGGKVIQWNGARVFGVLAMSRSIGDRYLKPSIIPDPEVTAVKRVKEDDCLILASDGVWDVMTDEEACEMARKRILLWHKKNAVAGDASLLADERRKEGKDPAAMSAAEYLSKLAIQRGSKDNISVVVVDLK
| Substitution | relative binding score [%] |
| --- | --- |
| L91A | 27 |
| D3I | 97.6 |
| V121K | 6.45 |
| L112R | -0.716 |
| Y18P | 107 |
| K126H | 113 |
| T6Q | 111 |
| K58W | 84.2 |
| R69C | 103 |
| G21W | 93.8 |
| N149Y | 49.9 |
| I162N | 71 |
| E67I | 110 |
| R49N | 104 |
| E151V | 103 |

Block 3
Target: RING finger protein unkempt homolog, zinc fingers 1-6, GST-SBP tag (UNK, Homo sapiens, UniProt Q9C0B0, residues 30-357)
UniProt Q9C0B0, sequence (30-357, looked up): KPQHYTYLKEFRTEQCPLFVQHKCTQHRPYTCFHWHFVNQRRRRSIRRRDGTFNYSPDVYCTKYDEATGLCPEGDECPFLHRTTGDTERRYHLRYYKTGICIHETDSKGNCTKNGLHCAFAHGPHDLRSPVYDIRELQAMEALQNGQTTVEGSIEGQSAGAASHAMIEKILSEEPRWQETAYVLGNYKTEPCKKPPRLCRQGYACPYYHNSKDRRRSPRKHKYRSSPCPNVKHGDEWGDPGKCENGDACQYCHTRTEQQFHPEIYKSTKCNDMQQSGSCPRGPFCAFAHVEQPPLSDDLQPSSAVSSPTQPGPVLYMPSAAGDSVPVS
Technique: RNA Bind-n-Seq
Molecule type: RNA
Sample: in vitro
Concentration: not given
Setting: RNA with constant flanks, human-mouse chimeric sites, ends assumed
Relative to: input RNA pool
Reading: higher = stronger binding
| Sequence | bound/input enrichment [ratio] |
| --- | --- |
| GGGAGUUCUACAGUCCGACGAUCAGUGUGCAGGAAUUCAUGACCUUUACAAGUCAACUGAUUGUGGAACGCUCAUCGAAAGGCAGCAGAGCUUCUGUCAAAGAACAAGAGUAUCUUUGCCACGUCUACGUCCGGAGCGACAGUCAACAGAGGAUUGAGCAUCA | 0.0815 |
| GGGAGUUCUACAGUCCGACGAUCAAAGCCCAAGUAUUUUGAAAAAACUCGAACAGAUUUGACAAGGGUAGCCAGCUUGGAGUCUAGCAACUUGCCAAUGUGUUUACCAAUUUUGGGGGCUGUUUUUCUUUUCUUCUUUCAAAUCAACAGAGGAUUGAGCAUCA | 0.439 |
| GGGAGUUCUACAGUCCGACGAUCUCGGAUGCUGUGCUGGGUCACUUUUCAUAUCCAGAUCCUUCACAGUGGACAGAUGAAGAAUUAGGUAUCCCUCCUGAUGACGAGGACUGACACUGUAAACUCUCUGGACGAGUAGGAGCACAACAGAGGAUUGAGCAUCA | 0.756 |
| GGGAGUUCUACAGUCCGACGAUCCCCCAAUACCAUUUGCAGGUCUGGAACUGCACUCUCUUUUUUAAAAAACAUGUAUACAUUUUAGGGCUGUAGACUUAUUUUCCUGGUUUUGUUUUUCUUGCUUAUUCUUUGAGCACAGAACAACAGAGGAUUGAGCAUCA | 2.13 |
| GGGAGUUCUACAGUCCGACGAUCGAGUCGAGCAAACUUGAAACAAUUCGUUAUCUUGCAGCCUCAGUGUUCACUUGCUUGUGGCAAUAGCAUUGGGAUUUUAGGUUCUGGAAGGAGAACUGACGAUGAUGCUGCCGCUGCUGCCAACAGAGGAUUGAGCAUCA | 0.146 |
| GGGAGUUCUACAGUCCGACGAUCUUACCCGAAAAUGAAGAUGAAUUGGAGAGCACCAACAGGCGCUACACCAAGAGGGACUGCAGCACUUUCCUCAGAACUAGUGAGACGGGCAUCGUGGACCAGGUCAUGGUCACUCUCAACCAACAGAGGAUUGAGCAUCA | 0.243 |
| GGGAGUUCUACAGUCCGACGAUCGUGUCCUGCUUUCAACUUAAAUCACUGCAUUUUUACUACUGUUCUGUGAGCAUCAGGACUGUAGCGCUGUGUCACCACAUGAGAGUUCAGAAGCAGCCUUUCUGUGGAGGGUGGGAAUGACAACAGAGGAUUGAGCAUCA | 0.209 |
| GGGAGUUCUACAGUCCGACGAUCGGGACUGAUUCAUCCCAAGGACAGGCCACCCCAUUUGGUGUUUGGAAUGAUGACAGUAUGGAAGGGCCUAGUCAAAAUGUUGAAGCUGAGUCAAUUCAAGAUAAUGCGAGUAUGGAAGAGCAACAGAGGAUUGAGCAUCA | 0.289 |

Block 4
Target: CCND3, cyclin fold, Cln2 fusion (human)
Technique: yeast growth competition, sequencing
Sample: yeast
Setting: strong parent motif
Relative to: not given
Reading: higher = stronger binding
Parent: INSM1 docking peptide (human); PKAIRKLHFEDEV
| Substitution | normalised enrichment score |
| --- | --- |
| E10R | 0.386 |
| E12P | 0.802 |
| H8Q | 1.25 |
| A3H | 0.216 |
| R5T | 0.359 |
| H8C | 1.77 |
| A3C | 0.896 |
| D11E | 1.28 |
| E12C | 1.02 |
| K2P | 0.607 |
| E10V | 0.707 |
| K2V | 0.55 |
| L7F | -0.179 |
| R5S | 0.183 |
| H8D | 1.38 |
| K6R | 0.971 |
| F9N | -0.0671 |

A few entries again (block 4):
| Substitution | normalised enrichment score |
| --- | --- |
| R5S | 0.183 |
| H8C | 1.77 |
| E10V | 0.707 |
| A3H | 0.216 |
| K2P | 0.607 |
